Measurements from different studies.
“And” joins repeats or separate records; there may be more than shown. Numbers after ± are the reported error.
CDPK1: Calcium-dependent protein kinase 1 (CDPK1, Plasmodium falciparum, UniProt P62344)
EPHX2: Bifunctional epoxide hydrolase 2 (EPHX2, Homo sapiens, UniProt P34913)
gag-pol integrase: Gag-Pol polyprotein, integrase (gag-pol, Human immunodeficiency virus 1, UniProt P12497)
Tpo: Thyroid peroxidase (Tpo, Rattus norvegicus, UniProt P14650)
MGLL: Monoglyceride lipase (MGLL, Homo sapiens, UniProt Q99685)
MAOB: Amine oxidase [flavin-containing] B (MAOB, Homo sapiens, UniProt P27338)

CCCS(=O)(=O)Nc1cc(-c2cc(-c3ccc(N4CCNCC4)cc3)cnc2N)cc(OC)c1C — IC50 (Receptor-interacting serine/threonine-protein kinase 2 (RIPK2, Homo sapiens, UniProt O43353); kinase activity, inhibitor, ADP-Glo; tested up to 10 µM): > 10000 nM
O=c1c(O)c(-c2ccc(O)c(O)c2)oc2cc(O)cc(O)c12 — IC50 (UDP-glucuronosyltransferase 1A4 (UGT1A4, Homo sapiens, UniProt P22310); glucuronidation; pooled human liver microsomes; no preincubation): 35000 nM
COc1ccccc1-c1cn(CC2CCN(C(C)=O)CC2)c2ncnc(N)c12 — IC50 (CDPK1; enzyme activity, inhibitor): > 2000 nM
CC(C)NCc1ccc(C[C@@H]2NC(=O)[C@H](N(C)C(=O)c3ccc4ccccc4c3)NC(=O)[C@H](Cc3ccccc3)NC(=O)[C@H](NC(=O)[C@@H](N)Cc3ccc(O)cc3)CSSC[C@@H](C(=O)N[C@@H](Cc3ccc4ccccc4c3)C(N)=O)NC(=O)[C@H](Cc3ccccc3)NC2=O)cc1 — IC50 (Somatostatin receptor type 1 (SSTR1, Homo sapiens, UniProt P30872); ligand displacement, radioligand; cell membranes): 365 nM
COc1ccc(N2C(=O)/C(=C\c3ccc([N+](=O)[O-])s3)SC2=S)cc1 — IC50 (Protein disulfide-isomerase (P4HB, Homo sapiens, UniProt P07237); insulin reduction, inhibitor, turbidity): 16600 ± 800 nM
COCC(=O)O[C@]1(CCN(C)CCCc2nc3ccccc3[nH]2)CCc2cc(F)ccc2[C@@H]1C(C)C — IC50 (Voltage-dependent P/Q-type calcium channel subunit alpha-1A, with β4/α2δ1 (Homo sapiens, UniProt O00555); calcium current, blocker, automated patch clamp; holding potential -90 mV; last pulse of train, added: 0.1 Hz pulse train): 2200 ± 600 nM
COc1cc(/C=C/c2ccc(O)cc2)cc(OC)c1 — IC50 (UDP-glucuronosyltransferase 1A6 (UGT1A6, Homo sapiens, UniProt P19224); enzyme activity, inhibitor; human liver microsomes; 60 min, added: serotonin 8 mM): 15100 ± 2800 nM
OC[C@H]1O[C@@H](n2cnc3c(O)ncnc32)[C@H](O)[C@@H]1O — IC50 (Nucleoside transporter 1 (Plasmodium vivax, UniProt A5K8B0); adenosine uptake, inhibitor; yeast expressing Nucleoside transporter 1; 15 min, added: [3H]adenosine 50 nM): 2700 nM
CC(C)COc1cccc(CC(=O)N2CCNc3nc(C(F)(F)F)ccc3[C@H]2CC(=O)O)c1 — IC50 (Neuromedin-B receptor (Rattus norvegicus, UniProt P24053); ligand displacement, radioligand): > 3000 nM
C[C@]12CC3CC(Nc4c(Nc5ccc(C(=O)N6CCC[C@H](C(=O)NCCCCC(=O)NO)C6)cc5)c(=O)c4=O)(C1)C[C@@](C)(C3)C2 — IC50 (EPHX2; enzyme activity, inhibitor, fluorescence): 104 nM
Cc1cccc(C(=O)N[C@@H](CCC(=O)O)C(=O)N[C@@H](Cc2ccc3ccccc3c2)C(=O)N[C@@H](CC(C)C)C(=O)NC2CC2c2ccccc2)c1 (stereo partly shown) — IC50 (Adenomatous polyposis coli protein (APC, Homo sapiens, UniProt P25054); ligand displacement, FP): 40600 nM
COC(=O)CO[C@@H]1CC(=O)[C@@]2(C)CC[C@@H]3c4ccc(OCc5ccccc5)cc4CC[C@H]3[C@H]12 — IC50 (17-beta-hydroxysteroid dehydrogenase type 1 (HSD17B1, Homo sapiens, UniProt P14061); enzyme activity, inhibitor, radiometric): 780 to 1500 nM
CCOC(=O)/C(O)=C/C(=O)c1cn(Cc2ccc(F)cc2)c2ccccc2c1=O — IC50 (gag-pol integrase; strand transfer, inhibitor, gel-based; added: Mg2+): 790 nM
O=C(O)c1cc(O)c(O)c(O)c1 — IC50 (Tpo; enzyme activity, inhibitor, LC-MS/MS, item: monoiodotyrosine; rat thyroid microsomes; added: L-tyrosine substrate): 1010 nM and 390 nM
O=C(OC(C(F)(F)F)C(F)(F)F)N1CCC(CCn2ccc3cccc(F)c32)CC1 — IC50 (MGLL; enzyme activity, inhibitor): 460 nM
O=c1c(O)c(-c2ccc(O)cc2)oc2cc(O)cc(O)c12 — IC50 (Tpo; tyrosine iodination, LC-MS/MS; rat thyroid microsomes; added: KI 300 µM, H2O2 40 µM): 6580 nM
CC(C)C[C@H](NC(=O)[C@@H](NC(=O)N[C@H](C(=O)NCc1ccccc1)C(C)C)C(C)C)C(=O)[C@@]1(C)CO1 — IC50 (rabbit 26S proteasome β1; caspase-like activity, inhibitor, fluorogenic substrate; purified proteasome; 30 min, 37 °C, added: fluorogenic caspase-like substrate): 1200 nM
O=C(Nc1cc(C(F)(F)F)ccc1O)Nc1cc(C(F)(F)F)ccc1O — IC50 (Voltage-dependent T-type calcium channel subunit alpha-1I (CACNA1I, Homo sapiens, UniProt Q9P0X4); inhibitor, FLIPR calcium; HEK293 with GCaMP6s-CAAX, Kir2.3; added: KCl at EC90): 39000 nM
CCn1c(C=Cc2cccnc2)nc2ccccc2c1=O — IC50 (DNA repair protein RAD51 homolog 1 (RAD51, Homo sapiens, UniProt Q06609); DNA strand exchange (D-loop), inhibitor; 30 min): 15300 nM
OC1CCCc2ccc(OCc3ccccc3)cc21 (stereo not shown) — IC50 (MAOB; enzyme activity, inhibitor, fluorescence): 249 nM
O=C(Nc1cccc(-c2nnc(C3CCCCC3)o2)c1)c1cnccn1 — IC50 (α-amylase; enzyme activity, inhibitor): 4950 nM
COc1ccc(-c2cn(CC3CCN(C(C)=O)CC3)c3ncnc(N)c23)cc1OC — IC50 (CDPK1; enzyme activity, inhibitor): > 2000 nM
O=C(Nc1cc(F)c(Cl)c(F)c1)c1cc(S(=O)(=O)N2CCOCC2)c(Cl)cc1Cl — IC50 (Lysophosphatidic acid receptor 2 (LPAR2, Homo sapiens, UniProt Q9HBW0); Ca2+ mobilization, antagonist; MEF; added: LPA at EC50): > 100000 nM
Cc1ccc2c(ccn2CCC2CCN(C(=O)OC(C(F)(F)F)C(F)(F)F)CC2)c1 — IC50 (MGLL; enzyme activity, inhibitor): 850 nM
O=C(O)/C(O)=C/C(=O)c1cn(Cc2ccc(F)cc2)c2cc(Cl)c(Cl)cc2c1=O — IC50 (gag-pol integrase; 3'-processing, inhibitor, gel-based; added: Mg2+): 34000 nM
C[C@H](NC(=O)C[C@H](CC(=O)NC(C)(C)C)NC(=O)CCc1ccccc1)C(=O)NCc1cccc2ccccc12 — IC50 (Proteasome component C5/PSMB5 (Homo sapiens, UniProt P20618+P28074); chymotrypsin-like activity, inhibitor; added: suc-LLVY-AMC): > 100000 nM
O=C(OC(C(F)(F)F)C(F)(F)F)N1CCC(CCn2ccc3cc(Cl)ccc32)CC1 — IC50 (MGLL; enzyme activity, inhibitor): 310 nM
O=C(Nc1cc(C(=O)Nc2ccc(S(=O)(=O)O)cc2S(=O)(=O)O)cc(C(=O)Nc2ccc(S(=O)(=O)O)cc2S(=O)(=O)O)c1)Nc1cc(C(=O)Nc2ccc(S(=O)(=O)O)cc2S(=O)(=O)O)cc(C(=O)Nc2ccc(S(=O)(=O)O)cc2S(=O)(=O)O)c1 — IC50 (human MBNL1; CUG repeat RNA binding, inhibitor, HTRF; added: biotin-(CUG)12 RNA): 28200 nM
O=c1c(O)c(-c2cc(O)c(O)c(O)c2)oc2cc(O)cc(O)c12 — IC50 (firefly luciferase; ADP-Glo ADP processing, luminescence counter-screen; cell-free, no kinase; up to 77 µM, added: ADP 1.25 µM, ATP 11.25 µM): no inhibition
O=C(COc1ccc(F)cc1F)Nc1cc(Cl)ccc1C(=O)O — IC50 (Transient receptor potential cation channel subfamily M member 4 (TRPM4, Homo sapiens, UniProt Q8TD43); ion flux, inhibitor, fluorescence): 3400 nM
COC(=O)/C=C/c1cc(O)ccc1O — IC50 (Proto-oncogene tyrosine-protein kinase Src (SRC, Homo sapiens, UniProt P12931); enzyme activity, inhibitor, ADP detection): > 10000 nM
CCOC(=O)C=CC(CC1CCNC1=O)NC(=O)C(Cc1ccc(F)cc1)NC(=O)C(N)Cc1ccccc1 (stereo not shown) — IC50 (Replicase polyprotein 1ab, main protease (rep, Severe acute respiratory syndrome coronavirus 2, UniProt P0DTD1); enzyme activity, inhibitor): 10000 nM
Cc1ncc([N+](=O)[O-])n1CC(C)O (stereo not shown) — IC50 (Cytochrome P450 2E1 (CYP2E1, Homo sapiens, UniProt P05181); enzyme activity, inhibitor; human liver microsomes; 30 min, added: chlorzoxazone): > 500000 nM
O=C(Cc1c[nH]c2ccccc12)Nc1cccc(-c2nnc(C3CCCCC3)o2)c1 — IC50 (α-amylase; enzyme activity, inhibitor): 3400 nM
CC(=O)N1CCN(C(=O)C2(NC(=O)Nc3ccc(F)cc3)CCCCC2)CC1 — IC50 (Endoplasmic reticulum aminopeptidase 1, open conformation (ERAP1, Homo sapiens, UniProt Q9NZ08); enzyme activity, inhibitor, fluorogenic; partial inhibition, added: L-AMC substrate): > 200000 nM
Cc1nc2ccccc2n1Cc1ccc(C(=O)NO)cc1 — IC50 (Histone deacetylase 9 (HDAC9, Homo sapiens, UniProt Q9UKV0); concentration not given): 345 nM
O=C(CCCCCCNC(=O)[C@H]1CCCN(C(=O)c2ccc(NC(=O)Nc3ccc(OC(F)(F)F)cc3)c(F)c2)C1)NO — IC50 (EPHX2; enzyme activity, inhibitor, fluorescence): 0.2 nM
CC[C@H](C)[C@H](NC(=O)[C@H](Cc1ccc(O)cc1)NC(=O)[C@@H](NC(=O)[C@H](CCCNC(=N)N)NC(=O)[C@@H](N)CC(=O)O)C(C)C)C(=O)N[C@@H](Cc1c[nH]cn1)C(=O)N1CCC[C@H]1C(=O)N[C@@H](Cc1ccccc1)C(=O)N[C@@H](Cc1c[nH]cn1)C(=O)O — IC50 (Neurolysin, mitochondrial (Rattus norvegicus, UniProt P42676); radioligand binding; rat, testis membranes): 3300 nM
OC1CCCc2cc(OCCOc3ccccc3)ccc21 (stereo not shown) — IC50 (MAOB; enzyme activity, inhibitor, fluorescence): 68 nM
C[C@]12CC3CC(Nc4c(Nc5ccc(CN6CCC[C@H](C(=O)NCCCCC(=O)NO)C6)cc5F)c(=O)c4=O)(C1)C[C@@](C)(C3)C2 — IC50 (EPHX2; enzyme activity, inhibitor, fluorescence): 88.4 nM

Repeated from above:
C[C@]12CC3CC(Nc4c(Nc5ccc(C(=O)N6CCC[C@H](C(=O)NCCCCC(=O)NO)C6)cc5)c(=O)c4=O)(C1)C[C@@](C)(C3)C2 — IC50 (EPHX2; enzyme activity, inhibitor, fluorescence): 104 nM
O=c1c(O)c(-c2ccc(O)c(O)c2)oc2cc(O)cc(O)c12 — IC50 (UDP-glucuronosyltransferase 1A4 (UGT1A4, Homo sapiens, UniProt P22310); glucuronidation; pooled human liver microsomes; no preincubation): 35000 nM
O=C(Nc1cc(F)c(Cl)c(F)c1)c1cc(S(=O)(=O)N2CCOCC2)c(Cl)cc1Cl — IC50 (Lysophosphatidic acid receptor 2 (LPAR2, Homo sapiens, UniProt Q9HBW0); Ca2+ mobilization, antagonist; MEF; added: LPA at EC50): > 100000 nM
O=C(COc1ccc(F)cc1F)Nc1cc(Cl)ccc1C(=O)O — IC50 (Transient receptor potential cation channel subfamily M member 4 (TRPM4, Homo sapiens, UniProt Q8TD43); ion flux, inhibitor, fluorescence): 3400 nM
Cc1ncc([N+](=O)[O-])n1CC(C)O (stereo not shown) — IC50 (Cytochrome P450 2E1 (CYP2E1, Homo sapiens, UniProt P05181); enzyme activity, inhibitor; human liver microsomes; 30 min, added: chlorzoxazone): > 500000 nM
O=C(Nc1cccc(-c2nnc(C3CCCCC3)o2)c1)c1cnccn1 — IC50 (α-amylase; enzyme activity, inhibitor): 4950 nM
